# Measured values collected from several papers.
# Numbered parts are unrelated; each lists some results of a single study. Positions count from the first letter of the parent shown.

# Series 1
# Target: Histone acetyltransferase KAT6A, winged helix 1, GST fusion (KAT6A, Homo sapiens, UniProt Q92794, residues 1-85)
# Technique: protein binding microarray
# Molecule type: double-stranded DNA, one strand shown
# Sample: in vitro
# Tested at: not given
# Notes: 8-mer, flanks averaged, mean of 2 arrays, mostly near background
# Reference: not given
# Direction: higher = stronger binding
# Residues (chain): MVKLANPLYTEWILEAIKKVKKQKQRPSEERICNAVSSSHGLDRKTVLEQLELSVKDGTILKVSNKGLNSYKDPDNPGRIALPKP
Strand,E-score
AGCTCCCG,0.18
GCGTGGCC,0.209
AATATCGG,0.172
GAGGTCCA,-0.146
ATAGTAGC,0.0522
CAGGATAG,-0.0881
CAACCACC,-0.141
GGTGCCAC,-0.0375
GGGGCAAA,0.102
CGCTCATA,0.0215
GGTCGTTA,-0.0258
AGACAACT,-0.282
AAAGCCCT,-0.104
ACGGCAGG,0.317
GCGCAGGA,0.185
AGTGCAGG,-0.109
AACGGCTG,0.148
ACGTGGCG,0.205
AGTATATC,-0.132
AACTCTTG,-0.392
CATCAGCG,0.255
AAATTCCG,-0.054

# Series 2
# Target: RNA binding protein fox-1 homolog 2, RRM domain, GST-SBP tag (RBFOX2, Homo sapiens, UniProt O43251-10, residues 100-194)
# Technique: RNA Bind-n-Seq
# Molecule type: RNA
# Sample: in vitro
# Tested at: 365 nM
# Notes: natural RNA segment, single round, ends assumed
# Reference: no-protein control
# Direction: higher = stronger binding
# All sequences stand within: GGGAGUUCUACAGUCCGACGAUC … UGGAAUUCUCGGGUGCCAA
# Target sequence (chain): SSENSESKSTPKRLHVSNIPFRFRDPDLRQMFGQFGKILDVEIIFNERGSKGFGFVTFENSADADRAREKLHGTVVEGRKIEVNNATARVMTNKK
Strand,RBNS enrichment (R)
UUGAAAAUGAUCCCUCUAAAAUGCUGUUGAGCUUGUGUUCAGUGUAGCAGGAGGAUCUGAACUUUUCCUGGAGAGGAGGUGAUCGGGAUGCCAUUUGGCAGCUUAAGCAC,0.859
GGGACCCAGCUCCAUGCACGUCAACCCAGUCCCGCCCAGACUAGUGGACAGACCUGGUGUCACCAGUUUUUCCUAGCAUCAGUCCGAACCAUGCGCCCGCCCUGCCCCAA,6.66
UCAGAACAAGGCAAAGCAAUAACUGGAAUUGUGACUCGAGGGAUAGACCCCUGGAUGUGACUCUUCUUUUUAAAAGGAAACUAUGUGGAGGACGAUGCAAAAACAUAUUU,0.409
AUGACACUAUAUAAAAUUUUCAUUUGAGAAUUUCUCAAUUGUAUCUAGUUAAAUAGCACAGUUUGGAAACUUGUCUGAGACUGACUUUAUCAAUAAUCUAACCGACAAAG,0.336
UCGCUGUCCUGCUGUGUGAAUUCCCAGGUUGGCCUGGUGGCCAUGUCGCCUGCCCCCAGCACUCCUCUGUCUCUGCUCUUGCCUGCACCCUUCCUCCUCCUUUGCCUAGG,1.27
GGCAACAUAUUUAAGAUUUCCAGCUCCUUGUGUAUAUGAAUGCAUUUGUAAGCAUCCCCCAAAUUAUUCUGAAGGUUUUUUGAUGAUGGAGGUAUGAUAGGUUUAUCACA,2.03
UGGCCAUUGUCUCUGGAUCCCCUCAGAAAGCUGCCUCCCCUAGGCAGGUGCCUUUUGGACAGUUGUGCUGAGCCUGGCAUCACAGACACCAGCAUGCACUUCAGGAUCAU,0.541
UAUCAGAUUGGUAACUUAUCGCCUGUUGUCCAGAUUGGCACGAACCUUUUCUUCCACUUAAUUAUUUUUUUAGGAUUUUGCUUUGAUUGUGUUUAUGUCAUGGGUCAUUU,0.431
AUGAUAUUGUGUAUUAAGACAUUCCUUAAUUAAAUUAGGACAAAAUGGCUGCUGUAUAUUUACAAUAUGGAAUUCUGAGUUAAGUACCGCCCUUCAUACUGGGAACAGAA,0.289
AUUUCUAGGUAGACCCAAAUGGAACUAAAUCAUGUCACAAGCUGAGAGAAUUACUGAGUUCCUCUCAGGACCCCUGAAGAAGCUAUAAGUCAGUACCAGUAGCUUCAGGG,0.518
GGCCCUAAAGCAGGCCUGCACCCCCAUGUUCCGGGAGUACUCCCUGCAGGUUCUGAAGAAUGCUCGGGCCAUGGCAGAUGCCCUGCUAGAGCGAGGCUACUCACUGGUAU,0.426
AGUGUGUUGGGAAUUGCAUGCCAUCUCCACCCUGAGCCUGACCUUUCUGAGUGACAUGGGUGUGCCAGGCUAGACUAGGAGGUUCCGGUGUCUGGAAAAGCACUUUACAG,27.6

# Series 3
# Target: ABI1, truncated, D143A, DHFR fusion (Arabidopsis thaliana)
# Technique: DHFR PCA, deep sequencing
# Sample: yeast
# Notes: methotrexate growth selection, single substitutions
# Added: (+)-ABA 2500 µM
# Reference: wild-type fitted maximum
# Direction: higher = stronger binding
# Starting sequence: PYL1, truncated, DHFR fusion (Arabidopsis thaliana); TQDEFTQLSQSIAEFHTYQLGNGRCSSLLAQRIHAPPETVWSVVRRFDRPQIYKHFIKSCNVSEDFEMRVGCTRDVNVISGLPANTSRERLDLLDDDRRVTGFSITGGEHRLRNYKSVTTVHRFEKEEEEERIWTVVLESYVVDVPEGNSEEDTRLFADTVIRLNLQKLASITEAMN; partner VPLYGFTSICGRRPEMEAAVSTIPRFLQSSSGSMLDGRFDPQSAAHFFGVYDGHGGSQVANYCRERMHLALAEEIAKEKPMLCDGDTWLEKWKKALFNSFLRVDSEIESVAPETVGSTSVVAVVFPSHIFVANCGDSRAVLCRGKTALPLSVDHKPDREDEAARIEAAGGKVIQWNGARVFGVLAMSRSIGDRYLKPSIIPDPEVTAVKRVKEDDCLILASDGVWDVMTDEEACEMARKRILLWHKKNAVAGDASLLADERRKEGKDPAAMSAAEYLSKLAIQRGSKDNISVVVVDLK
Variant,relative binding score
I105C,98%
E125L,105%
S140N,22.6%
E64Q,97.3%
H16S,36.5%
I133M,102%
V44Y,41.1%
R155A,87%
E128T,111%
T119L,106%
D95L,87.7%
E147D,102%
E127L,100%
N77T,99.1%
N149W,19%
K54H,43%
I33Y,37.3%
K58F,85.6%

# Series 4
# Target: RING finger protein unkempt homolog, zinc fingers 1-6, GST-SBP tag (UNK, Homo sapiens, UniProt Q9C0B0, residues 30-357)
# Technique: RNA Bind-n-Seq
# Molecule type: RNA
# Sample: in vitro
# Tested at: not given
# Notes: RNA with constant flanks, ends assumed
# Reference: input RNA pool
# Direction: higher = stronger binding
# All sequences stand within: GGGAGUUCUACAGUCCGACGAUC … CAACAGAGGAUUGAGCAUCA
# Target sequence (chain): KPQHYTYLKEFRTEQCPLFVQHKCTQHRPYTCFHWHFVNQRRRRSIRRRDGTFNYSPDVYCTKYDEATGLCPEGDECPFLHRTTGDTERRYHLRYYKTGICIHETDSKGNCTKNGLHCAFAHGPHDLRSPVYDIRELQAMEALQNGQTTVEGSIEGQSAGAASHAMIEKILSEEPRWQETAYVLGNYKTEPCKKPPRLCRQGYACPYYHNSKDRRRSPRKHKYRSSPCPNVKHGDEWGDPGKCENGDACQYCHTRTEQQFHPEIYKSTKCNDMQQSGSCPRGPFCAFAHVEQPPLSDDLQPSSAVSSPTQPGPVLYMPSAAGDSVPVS
Strand,bound/input enrichment [ratio]
AUGCACCUGAAGAAACCUGGGGGCUUUGACAUAUCCUUGUUCUACAGAGAUAUCAUCAGCACCGCAGAGGAUGAGGACCUCAGGGUUCACUUUGAGGAAUCCAGCAAGCUAGAAGACCUG,0.122
AGGGAUGGCCCCCAAUCCCACCUCUGUUUAUUCUGUAAACUGCAACCUAUAAAUAACCUUCCGCAUUCCUAUUGUAACAAAAUUAAUUUUUAUGAAAUAAAUUAUAUUUCCUAGUCUAAU,32.4
CCAAACCGAUUUGAUAUGAACGUGUGUUCUCGAUUCGUGAAGUCCUUAAAUGAAGAGGACCGUAAAAAUAUUCAAGAUCAAGUUAACUCUGACCUGGAGGUGGCAUCUGUCUUAUUUAAA,0.161
AAUGAGUCUUUGGCCUCAGAGCCUCUCAAAGUGUCCACUUCAAGGGGGGAUCAUCCUCAUCCGCACACAGAUUUUUAAAAAUCAAUUCUCUUGCCAUGCCUCCUAUGUGUUCACAUCUCU,0.31
UCAGGAACCCAGACAAACAUGAAUGUAAAUGAAGUCAUUAGCAACAGAGCAAUUGAAAUGUCCGGAGGUGAACUUGGCAGCAAGAAGCCUGUGCACCCCAAUGAUCAUGUUAACAAAAGC,0.23
CUUUCUUUUUGGCCGUCUUUAAAAAAAUUUUUUUUUUUAAUCUAUAAAAUAGACAAGAGCCCGUUCUACAAUGUCCAAGUCAUUCCAGCAGUCAUCUCUCAGUAGGGACUCACAGGGUCA,0.354
AGUCUGGCCGUACCACUGUGGCUGCUGGCAGCGUCCCUGUUCUGCCUUCUCAGCAAAUGUUAACCGAAUAAAAAUUUAAAAAUAAUUACAAAAACACACAAAAAUGCGUCACACAGAUAC,1.48
UGCAAUUGGGUAGUGGACACUUGUUUACACAAGGGAAGUCGAGAUAACAUGAGUAUUGUACCCGUUUGCUUUUCAAAUGCUCCCAAGGUCUCAGAUGAAGCGGUGAAAAAAGAUUCAGAG,0.103
GUUAGUUUCUUUAUAACCCGUUUAAGUUUGGUUUGCCUCAAUAUACUUUUUAGUUAUUUAAUCCGUAAUUUAAGUAAAUGUGUUUGGUAAUCAUUGUGAAGUUCAGAUUUAUUAUGGAGA,6.43
GCCAUCCAGCACUGCCAUUCCCGUGGAGUUGUCCAUCGUGACAUCAAGGAUGAGAACAUCCUGACCGACCUACGCCGUGGCUGUGCCAAACUCAUUGAUUUUGGUUCUGGUGCCCUGCUU,0.0999
UUCCCUGAAUUUCUGACAAUGAUGGCAAGAAAAAUGAAAGACACAGACAGUGAAGAAGAAAUCCGAGAAGCAUUCCGUGUGUUUGAUAAGGAUGGCAAUGGCUAUAUUAGUGCUGCAGAA,0.24

# Series 5
# Target: Ras GTPase-activating protein-binding protein 1, full length (G3BP1, Homo sapiens, UniProt Q13283)
# Sequence of UniProt Q13283 (whole entry, looked up): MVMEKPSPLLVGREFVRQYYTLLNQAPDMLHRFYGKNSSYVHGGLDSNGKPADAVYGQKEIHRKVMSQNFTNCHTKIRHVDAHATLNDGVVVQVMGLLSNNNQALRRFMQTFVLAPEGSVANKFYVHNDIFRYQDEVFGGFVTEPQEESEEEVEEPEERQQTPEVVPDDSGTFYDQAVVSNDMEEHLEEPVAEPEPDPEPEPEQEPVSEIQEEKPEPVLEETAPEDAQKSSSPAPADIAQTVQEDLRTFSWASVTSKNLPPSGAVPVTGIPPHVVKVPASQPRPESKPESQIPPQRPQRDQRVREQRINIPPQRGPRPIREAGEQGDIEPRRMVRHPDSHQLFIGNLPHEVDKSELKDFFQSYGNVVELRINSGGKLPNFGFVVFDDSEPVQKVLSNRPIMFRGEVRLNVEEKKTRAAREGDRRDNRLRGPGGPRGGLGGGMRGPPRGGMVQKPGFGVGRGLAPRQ
# Technique: RNA Bind-n-Seq
# Molecule type: RNA
# Sample: in vitro
# Tested at: 200 nM
# Notes: whole 134-nt RNA, ends assumed
# Added: 150 mM LiCl
# Reference: input library
# Direction: higher = stronger binding
# All molecules: 7-deaza-guanosine replaces G
# All sequences stand within: GGGAGUUCUACAGUCCGACGAUC … UGGAAUUCUCGGGUGUCAAGG
Strand,log2 enrichment
CCUGUGCUACACAUCGUAUGUACCGAAUCGGCCCCCCCGGGGCCCCCCCGGCCCCCCCGGGAAAGUAUUAUGUUACGCCGUUCGGAUCUG,-0.859
UCAAGUCCUGUGCUACACAUCGUAUGUACCGAAUCGGGCCGGGCCGGGCCGGGGAAAGUAUUAUGUUACGCCGUUCGGAUCUGCACUUCC,0.566
UAACUUUAGAGGAGGAUCUGAUGGAUAUGGCAGUGGACGUGGAUUUGGGGAUGGCGAUAAUGGGUAUGGAGGAGGACCUGGAGGUGGCAA,0.251
CCUGUGCUACACAUCGUAUGUACCGAAUCGGGGUUUGGGGAAAAAAAGGGGUUUUUGGGGAAAGUAUUAUGUUACGCCGUUCGGAUCUGC,0.308
GUCCUGUGCUACACAUCGUAUGUACCGAAUCGGGAAAAAAAGGGUUUGGGAAAAAGGGAAAGUAUUAUGUUACGCCGUUCGGAUCUGCAC,-2.02
CCUGUGCUACACAUCGUAUGUACCGAAUCGGUUUUUUUGGGUUUUUUUGGGUUUUUUUGGGAAAGUAUUAUGUUACGCCGUUCGGAUCUG,-0.0305
AAGUCCUGUGCUACACAUCGUAUGUACCGAAUCGGAAAAAGGAAAAAGGAAAAAGGAAAGUAUUAUGUUACGCCGUUCGGAUCUGCACUU,-0.955
CACAGACAACACGCACCCACACAGACACAGAGGGAAGGGGUUGGGAUGGGGACAGGGUGAACAGCAGGGCGGGGUAGGACCCCAGCCCCU,-0.7
AAGUCCUGUGCUACACAUCGUAUGUACCGAAUCGGGGUGGGGAGGGGAAAAAGGGGAAAGUAUUAUGUUACGCCGUUCGGAUCUGCACUU,0.676
UCCUGUGCUACACAUCGUAUGUACCGAAUCGGCCCCCCGGGCCCCCCGGCCCCCCGGGGAAAGUAUUAUGUUACGCCGUUCGGAUCUGCA,-0.337
CUCAAGUCCUGUGCUACACAUCGUAUGUACCGAAUCGGCCGGGGCCGGGCCGGAAAGUAUUAUGUUACGCCGUUCGGAUCUGCACUUCCA,-0.0143

# Some of these lines once more (series 1):
Strand,E-score
AGTGCAGG,-0.109
GGTCGTTA,-0.0258
AACTCTTG,-0.392
AGCTCCCG,0.18
CATCAGCG,0.255
GCGCAGGA,0.185
GGGGCAAA,0.102
GAGGTCCA,-0.146
CAGGATAG,-0.0881
AAAGCCCT,-0.104
AGTATATC,-0.132
AGACAACT,-0.282
